Measurements gathered from unrelated publications.
Parts stem from different laboratories: compare values within a part only.
Chain of UniProt P42336 (whole entry, unmodified, looked up): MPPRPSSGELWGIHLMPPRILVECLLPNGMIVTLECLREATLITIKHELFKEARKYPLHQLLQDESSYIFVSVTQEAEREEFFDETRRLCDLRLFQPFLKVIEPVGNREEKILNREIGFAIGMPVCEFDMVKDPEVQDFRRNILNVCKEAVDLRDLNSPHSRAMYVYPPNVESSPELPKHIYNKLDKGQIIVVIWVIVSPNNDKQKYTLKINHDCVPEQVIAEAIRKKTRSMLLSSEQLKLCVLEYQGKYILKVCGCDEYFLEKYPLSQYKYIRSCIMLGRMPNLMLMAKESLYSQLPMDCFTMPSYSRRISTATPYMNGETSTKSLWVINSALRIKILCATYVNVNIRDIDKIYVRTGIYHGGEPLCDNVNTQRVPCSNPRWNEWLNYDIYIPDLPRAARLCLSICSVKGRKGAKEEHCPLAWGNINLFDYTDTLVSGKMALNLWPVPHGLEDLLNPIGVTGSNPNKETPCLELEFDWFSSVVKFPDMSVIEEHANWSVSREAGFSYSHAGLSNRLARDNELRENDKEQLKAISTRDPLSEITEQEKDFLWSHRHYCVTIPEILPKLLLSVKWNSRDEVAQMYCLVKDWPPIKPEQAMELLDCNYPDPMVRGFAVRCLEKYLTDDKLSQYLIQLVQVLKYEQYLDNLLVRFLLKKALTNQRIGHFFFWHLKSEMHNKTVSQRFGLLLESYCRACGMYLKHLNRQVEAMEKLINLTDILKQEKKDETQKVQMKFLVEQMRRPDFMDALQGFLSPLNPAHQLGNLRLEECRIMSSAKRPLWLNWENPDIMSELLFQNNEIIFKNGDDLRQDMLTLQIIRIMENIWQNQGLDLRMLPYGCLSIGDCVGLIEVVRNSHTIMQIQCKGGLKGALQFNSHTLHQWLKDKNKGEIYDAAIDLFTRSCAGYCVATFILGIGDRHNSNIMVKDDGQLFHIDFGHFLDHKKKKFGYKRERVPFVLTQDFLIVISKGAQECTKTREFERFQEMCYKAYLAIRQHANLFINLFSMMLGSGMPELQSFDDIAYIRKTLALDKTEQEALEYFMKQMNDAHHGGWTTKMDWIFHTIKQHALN
Chain of UniProt Q12851 (whole entry, looked up): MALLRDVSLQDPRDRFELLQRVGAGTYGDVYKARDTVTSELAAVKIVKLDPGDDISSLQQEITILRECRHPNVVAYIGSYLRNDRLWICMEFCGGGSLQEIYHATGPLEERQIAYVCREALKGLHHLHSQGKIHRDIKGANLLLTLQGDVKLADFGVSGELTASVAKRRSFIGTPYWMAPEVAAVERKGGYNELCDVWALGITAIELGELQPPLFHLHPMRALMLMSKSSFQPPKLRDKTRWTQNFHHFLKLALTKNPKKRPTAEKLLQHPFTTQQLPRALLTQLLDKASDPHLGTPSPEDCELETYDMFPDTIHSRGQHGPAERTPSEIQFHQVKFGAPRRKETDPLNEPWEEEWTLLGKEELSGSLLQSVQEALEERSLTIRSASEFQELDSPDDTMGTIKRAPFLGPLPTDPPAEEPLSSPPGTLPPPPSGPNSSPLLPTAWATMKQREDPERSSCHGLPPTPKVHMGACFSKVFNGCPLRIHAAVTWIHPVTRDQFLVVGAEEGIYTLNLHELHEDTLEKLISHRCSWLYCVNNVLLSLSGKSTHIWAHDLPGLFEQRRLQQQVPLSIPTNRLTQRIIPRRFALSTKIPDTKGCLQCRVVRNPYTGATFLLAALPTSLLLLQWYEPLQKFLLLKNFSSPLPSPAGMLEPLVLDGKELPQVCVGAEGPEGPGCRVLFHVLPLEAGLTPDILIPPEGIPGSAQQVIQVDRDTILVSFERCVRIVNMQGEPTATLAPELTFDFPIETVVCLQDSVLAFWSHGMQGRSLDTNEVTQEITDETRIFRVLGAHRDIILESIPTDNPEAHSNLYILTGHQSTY
Chain of UniProt P29597 (whole entry, looked up): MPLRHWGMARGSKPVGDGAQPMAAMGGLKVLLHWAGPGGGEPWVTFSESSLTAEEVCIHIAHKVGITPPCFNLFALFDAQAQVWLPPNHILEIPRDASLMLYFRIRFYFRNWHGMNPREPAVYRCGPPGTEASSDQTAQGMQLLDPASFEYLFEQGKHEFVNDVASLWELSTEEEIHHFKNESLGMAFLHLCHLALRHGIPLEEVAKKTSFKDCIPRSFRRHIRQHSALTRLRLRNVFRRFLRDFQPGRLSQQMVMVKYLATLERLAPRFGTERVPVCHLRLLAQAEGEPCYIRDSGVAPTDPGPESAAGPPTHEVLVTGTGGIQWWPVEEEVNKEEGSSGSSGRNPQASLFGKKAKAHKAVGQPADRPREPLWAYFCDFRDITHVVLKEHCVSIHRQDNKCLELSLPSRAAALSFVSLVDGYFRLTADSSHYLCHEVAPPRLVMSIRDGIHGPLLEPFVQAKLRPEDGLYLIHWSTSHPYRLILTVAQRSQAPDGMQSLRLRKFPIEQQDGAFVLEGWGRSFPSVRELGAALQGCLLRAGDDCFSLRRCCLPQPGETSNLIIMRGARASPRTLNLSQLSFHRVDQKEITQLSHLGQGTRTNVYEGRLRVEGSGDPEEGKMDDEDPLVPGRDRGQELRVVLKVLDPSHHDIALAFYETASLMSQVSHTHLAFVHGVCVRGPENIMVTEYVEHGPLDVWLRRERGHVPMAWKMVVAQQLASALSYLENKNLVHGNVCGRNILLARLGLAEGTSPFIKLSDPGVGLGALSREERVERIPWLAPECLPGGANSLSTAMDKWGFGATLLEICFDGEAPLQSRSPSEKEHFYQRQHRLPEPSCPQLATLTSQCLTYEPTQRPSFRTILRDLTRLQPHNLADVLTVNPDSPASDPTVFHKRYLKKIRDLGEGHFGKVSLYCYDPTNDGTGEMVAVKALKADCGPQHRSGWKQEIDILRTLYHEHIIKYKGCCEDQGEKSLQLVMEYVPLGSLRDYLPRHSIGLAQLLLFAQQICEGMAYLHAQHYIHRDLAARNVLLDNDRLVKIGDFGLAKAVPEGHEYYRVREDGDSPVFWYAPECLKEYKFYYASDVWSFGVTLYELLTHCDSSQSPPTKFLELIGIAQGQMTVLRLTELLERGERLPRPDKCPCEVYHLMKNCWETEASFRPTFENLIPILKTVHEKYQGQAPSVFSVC
Chain of UniProt P36896 (whole entry, looked up): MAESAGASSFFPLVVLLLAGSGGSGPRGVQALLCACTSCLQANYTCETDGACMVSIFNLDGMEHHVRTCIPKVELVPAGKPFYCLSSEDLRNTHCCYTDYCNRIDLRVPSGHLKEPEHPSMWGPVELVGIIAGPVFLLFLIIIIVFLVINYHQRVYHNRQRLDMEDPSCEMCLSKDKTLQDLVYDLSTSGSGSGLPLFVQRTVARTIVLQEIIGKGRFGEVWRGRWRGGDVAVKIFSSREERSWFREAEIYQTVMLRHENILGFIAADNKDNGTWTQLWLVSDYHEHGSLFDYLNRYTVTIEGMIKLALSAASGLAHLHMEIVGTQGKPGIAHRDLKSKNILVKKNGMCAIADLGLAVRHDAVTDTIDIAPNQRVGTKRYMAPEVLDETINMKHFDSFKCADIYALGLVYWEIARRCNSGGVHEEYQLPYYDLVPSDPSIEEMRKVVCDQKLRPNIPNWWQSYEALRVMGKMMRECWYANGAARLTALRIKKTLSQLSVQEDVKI
Chain of UniProt P45985 (whole entry, looked up): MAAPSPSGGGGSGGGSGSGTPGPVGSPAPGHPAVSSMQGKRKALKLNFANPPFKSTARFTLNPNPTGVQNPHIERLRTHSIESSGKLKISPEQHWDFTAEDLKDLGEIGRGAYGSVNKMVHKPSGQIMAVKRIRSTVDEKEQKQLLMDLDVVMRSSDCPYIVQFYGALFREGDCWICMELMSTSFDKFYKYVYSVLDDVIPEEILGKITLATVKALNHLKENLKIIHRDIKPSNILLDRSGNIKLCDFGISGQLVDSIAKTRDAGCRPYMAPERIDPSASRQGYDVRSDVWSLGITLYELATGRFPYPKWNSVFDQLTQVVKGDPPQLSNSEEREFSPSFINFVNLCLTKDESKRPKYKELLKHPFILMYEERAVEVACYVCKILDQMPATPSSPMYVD

Study 1
SMILES: N#Cc1ccc(Nc2ccc3[nH]c(=O)[nH]c3c2)c(Cl)c1
Observed: cell-free assay
Technique: competition with immobilised ligand
Tested at: 1 µM
Measurement: remaining binding
PIK3CA (Homo sapiens, UniProt P42336, E542K): 70%
FGFR1 (Homo sapiens, UniProt P11362): 100%
MAP2K4 (Homo sapiens, UniProt P45985): 100%
MARK4 (Homo sapiens, UniProt Q96L34): 99%
MAP3K19 (Homo sapiens, UniProt Q56UN5): 100%
Ribosomal protein S6 kinase alpha-6, C-terminal kinase domain (RPS6KA6, Homo sapiens, UniProt Q9UK32): 100%
Aurora kinase C (AURKC, Homo sapiens, UniProt Q9UQB9): 100%
MET (Homo sapiens, UniProt P08581, Y1235D): 95%
BMPR2 (Homo sapiens, UniProt Q13873): 91%
SRC (Homo sapiens, UniProt P12931): 92%
TTK (Homo sapiens, UniProt P33981): 88%
STK16 (Homo sapiens, UniProt O75716): 91%
MAP3K6 (Homo sapiens, UniProt O95382): 100%
CDK17 (Homo sapiens, UniProt Q00537): 100%
PRKD3 (Homo sapiens, UniProt O94806): 100%
EGFR (Homo sapiens, UniProt P00533, del746-750): 100%
DYRK1B (Homo sapiens, UniProt Q9Y463): 83%
MAP4K2 (Homo sapiens, UniProt Q12851): 100%
MAP3K1 (Homo sapiens, UniProt Q13233): 79%
BMP2K (Homo sapiens, UniProt Q9NSY1): 91%
ACVR1B (Homo sapiens, UniProt P36896): 100%
MAPK11 (Homo sapiens, UniProt Q15759): 100%
Ribosomal protein S6 kinase alpha-4, N-terminal kinase domain (RPS6KA4, Homo sapiens, UniProt O75676): 70%
STK36 (Homo sapiens, UniProt Q9NRP7): 100%
Non-receptor tyrosine-protein kinase TYK2, JH1 (TYK2, Homo sapiens, UniProt P29597): 100%

Study 2
Target: Eukaryotic initiation factor 4A-I (EIF4A1, Homo sapiens, UniProt P60842)
Chain of UniProt P60842 (whole entry, looked up): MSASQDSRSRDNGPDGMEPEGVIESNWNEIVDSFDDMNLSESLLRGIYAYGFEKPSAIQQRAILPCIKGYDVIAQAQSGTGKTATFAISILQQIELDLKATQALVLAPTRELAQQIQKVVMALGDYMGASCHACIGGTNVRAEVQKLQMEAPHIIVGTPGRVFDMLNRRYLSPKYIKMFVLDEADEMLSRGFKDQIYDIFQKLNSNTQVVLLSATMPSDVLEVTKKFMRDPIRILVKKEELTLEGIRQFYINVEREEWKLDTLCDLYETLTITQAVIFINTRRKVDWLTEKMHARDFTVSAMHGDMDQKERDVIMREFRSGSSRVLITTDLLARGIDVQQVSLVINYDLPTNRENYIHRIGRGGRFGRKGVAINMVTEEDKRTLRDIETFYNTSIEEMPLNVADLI
Observed: RNA clamping
Technique: fluorescence polarization
Tested at: concentration not given
With: FAM-labelled poly r(AG)8 RNA
Reading: higher = more clamping
Measurement: fluorescence polarization change
COC(=O)[C@H]1C(=O)[C@@]2(NC34C[C@H]5C[C@@H](C3)C[C@@H](C4)C5)c3c(OC)cc(OC)cc3O[C@@]2(c2ccc(OC)cc2)[C@@H]1c1ccccc1: 0.6 mP
C#CCN[C@@]12C(=O)[C@H](C(=O)OC)[C@@H](c3ccccc3)[C@]1(c1ccc(OC)cc1)Oc1cc(OC)cc(OC)c12: 2.2 mP
COc1ccc([C@@]23Oc4cc(OC)cc(OC)c4[C@@](O)(C2=O)[C@H](c2ccccc2)[C@H]3c2ccccc2)cc1: 11.2 mP
C#CCNC(=O)COc1cc(OC)c2c(c1)O[C@@]1(c3ccc(OC)cc3)[C@H](c3ccccc3)c3c(nc(-c4ccccc4)[nH]c3=O)[C@@]21O: -2.8 mP
COc1cc(OC)c2c(c1)O[C@@]1(c3ccc(OC)c(O)c3)[C@H](c3ccccc3)[C@@H](C(=O)c3ccco3)[C@@H](O)[C@@]21O: 9.6 mP
C=CCN1c2cc(OC)cc(OC)c2[C@]2(O)[C@H](O)[C@H](C(=O)OC)[C@@H](c3ccccc3)[C@]12c1ccc(OC)cc1: 0.5 mP
C#CCOc1ccc(-c2nc(OCC#C)c3c(n2)[C@@]2(O)c4c(OC)cc(OC)cc4O[C@@]2(c2ccc(OC)cc2)[C@@H]3c2ccccc2)cc1: -15 mP
COC(=O)[C@H]1[C@@H](O)[C@@]2(O)c3c(OC)cccc3N(C)[C@@]2(c2ccc(Br)cc2)[C@@H]1c1ccccc1: 3.1 mP
COCCN[C@@]12C(=O)[C@H](C(=O)N(C)C)[C@@H](c3ccccc3)[C@]1(c1ccc(OC)cc1)Oc1cc(OC)cc(OC)c12: -12.9 mP

Study 3
Target: His6 tag
Technique: AlphaScreen counter screen
Tested at: concentration not given
Measurement: inhibition
CCCNC(=O)Nc1ccc(Oc2ncnc3cc(OC)c(OC)cc23)cc1Cl: 6.3%
COc1cc(OC)c(/C=C/S(=O)(=O)Cc2ccc(OC)c(NCC(=O)O)c2)c(OC)c1: 18.7%
Cn1cc(C=C2SC(=O)NC2=O)c2ccccc21: 17.7%
Cc1c(C(N)=O)sc2nc[nH]c(=O)c12: -3.6%
CCn1c(SCCC(=O)O)nc2c1c(=O)[nH]c(=O)n2C: -5.15%
Nc1ccc(-c2c3ccc(=O)cc-3oc3cc(O)ccc23)cc1C(=O)O: 0.2%
O=c1[nH]cnc2scc(-c3ccc(F)cc3)c12: -5.1%
COc1ccc(-c2[nH]c3ncccc3c2CN2CCN(S(=O)(=O)N(C)C)CC2)cc1: 1.85%
COc1ccc(-c2ccc3c(N4CCOC[C@@H]4C)nc(N4CCOC[C@@H]4C)nc3n2)cc1CO: -45.5%
Cc1cc(C(=O)NOCCO)c(Nc2ccc(I)cc2F)n(C)c1=O: 6.5%
Brc1c(Br)c(Br)c2[nH]nnc2c1Br: 4.3%
COc1ccc(-c2nnc3ccc(SCC(=O)Nc4ccccc4F)nn23)cc1OC: -4.9%
O=C(CSc1ccc2nnc(-c3ccc(Cl)cc3)n2n1)N1CCOCC1: -10.8%
Cc1c(-c2ccccc2)sc2nc[nH]c(=O)c12: 6.25%
O=C(CSc1ccc2nnc(-c3cccc(F)c3)n2n1)Nc1cccc(Cl)c1: 4.25%
CCOC(=O)CNC(=O)CSc1ccc2nnc(-c3ccc(Cl)cc3)n2n1: -11.8%
Cl.O=S(=O)(c1cccc2c(Cl)cccc12)N1CCCNCC1: 6.45%

Study 4
Target: Protein kinase C beta type, isoform beta-II (PRKCB, Homo sapiens, UniProt P05771)
Chain of UniProt P05771 (whole entry, looked up): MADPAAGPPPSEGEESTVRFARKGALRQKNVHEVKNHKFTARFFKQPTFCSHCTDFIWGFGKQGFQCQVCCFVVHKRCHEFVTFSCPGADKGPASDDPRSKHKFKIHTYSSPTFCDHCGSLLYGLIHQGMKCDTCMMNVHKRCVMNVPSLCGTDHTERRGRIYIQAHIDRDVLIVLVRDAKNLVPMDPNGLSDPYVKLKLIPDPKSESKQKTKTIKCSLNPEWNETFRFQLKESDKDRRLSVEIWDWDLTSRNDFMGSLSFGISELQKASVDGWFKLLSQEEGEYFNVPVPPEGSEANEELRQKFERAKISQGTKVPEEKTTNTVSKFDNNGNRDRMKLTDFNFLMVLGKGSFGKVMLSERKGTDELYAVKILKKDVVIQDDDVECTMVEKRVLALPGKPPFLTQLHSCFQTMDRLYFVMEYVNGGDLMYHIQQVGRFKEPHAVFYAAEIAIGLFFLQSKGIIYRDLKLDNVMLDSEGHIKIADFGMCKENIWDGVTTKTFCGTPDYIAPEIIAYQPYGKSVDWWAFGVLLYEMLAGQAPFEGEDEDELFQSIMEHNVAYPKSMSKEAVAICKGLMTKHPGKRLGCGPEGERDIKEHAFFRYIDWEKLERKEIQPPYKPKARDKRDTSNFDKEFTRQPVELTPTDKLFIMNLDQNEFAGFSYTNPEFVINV
Observed: enzyme activity
Mode: inhibitor
Tested at: 0.5 µM
Relative to: control
Measurement: remaining activity
Cc1cc2ncc(-c3ccccc3)nc2cc1C: 124%
c1ccc(-c2[nH]ncc2-c2ccnc3ccccc23)nc1: 92.1%
CCOc1nc(NC(=O)Cc2cc(OC)ccc2OC)cc(N)c1C#N: 105%
COc1cc2ncnc(Nc3ccc(O)c(Br)c3)c2cc1OC: 98.7%
Cn1nc2c3c(cccc31)C(=O)c1ccccc1-2: 97.8%
O=C(Nc1cccc(Nc2nccc(Nc3cccc(C(F)(F)F)c3)n2)c1)C1CC1: 98%
CCN(CC)CCNC(=O)c1c(C)[nH]c(/C=C2\C(=O)Nc3ccc(Cl)cc32)c1C: 110%
CCN(CC)C(=O)c1ccc(Nc2nc(OCC3CCCCC3)c3[nH]cnc3n2)cc1: 95%
N#C/C(=C\c1ccc(O)c(O)c1)C(=O)NCc1ccccc1: 99.8%
N#Cc1c(NC(=O)c2cccc3ccccc23)sc2c1CCCC2: 104%
Cc1cn(-c2cc(NC(=O)c3ccc(C)c(Nc4nccc(-c5cccnc5)n4)c3)cc(C(F)(F)F)c2)cn1: 96.3%
COc1cc2ncnc(Nc3cccc(Cl)c3)c2cc1OC: 95.5%
O=C1c2ccccc2-c2n[nH]c3cccc1c23: 99.3%
Ic1cccc(CSc2nnc(-c3ccncc3)o2)c1: 91.2%
Nc1cccc(-c2cc3c(Oc4cccc(O)c4)ncnc3[nH]2)c1: 97.5%
CN(C)C[C@H]1CCn2c(c(C3=C(c4cn(C)c5ccccc45)C(=O)NC3=O)c3ccccc32)C1: 2.29%
CCN(CC)CCNC(=O)c1c(C)[nH]c(/C=C2\C(=O)Nc3ccc(F)cc32)c1C: 104%
O=c1cc(-c2cccc3c2Sc2ccccc2S3)oc(N2CCOCC2)c1: 105%
COc1cc2c(cc1OC)-c1[nH]nc(Nc3cccc(F)c3)c1C2: 103%
Cc1nc2cc3nc(-c4cccs4)cnc3cc2n1C: 121%
c1ccc(-c2cnc(Nc3ccc(OCCN4CCCC4)cc3)s2)cc1: 104%
O=C(NC(NC(=S)Nc1ccc(F)c([N+](=O)[O-])c1)C(Cl)(Cl)Cl)C(c1ccccc1)c1ccccc1 (stereo not drawn): 107%
O=C1Nc2ccc(Cl)cc2C1=Cc1cc(Cl)c(O)c(Cl)c1: 97.5%
C[C@@H]1CCN(C(=O)CC#N)C[C@@H]1N(C)c1ncnc2[nH]ccc12: 88.1%
